Measured values from different studies.
Lines come from different studies, so protocols differ. “And” joins repeats or separate records; there may be more than shown.
Target: Serine/threonine-protein kinase TAO2 (TAOK2, Homo sapiens, UniProt Q9UL54)

Compound | assay | test system | conditions | how to read | quantity | result
CNC1C[S+]2CC[S+]3CC[S+](C1)[Ru-4]321([N]=C=S)[n]2c3ccc(OC)cc3c3c4c(c5cc(F)c[n+]1c5c32)C(=O)NC4=O (centres unmarked) | KinomeScan |  | 0.1 µM | relative to: untreated | remaining binding | 100%
COc1cc(Nc2nc(C)cc(-c3cnn4nc(OC)ccc34)n2)cc(C(F)(F)F)c1 | binding, competition with immobilised ligand |  | 1 µM |  | remaining binding | 77%
COCC12C(=O)NC3C4(C(OC)CC1O)C1CC5(O)C(OC)C(O)C(OC(C)=O)(C1C5OC(=O)c1ccccc1)C3(O)C(OC)C24 (centres unmarked) | kinase activity, inhibitor, ProQinase kinase profiling |  | 25 µM | relative to: control | remaining activity | 99% and 129%
Cc1[nH]nc2c1N=C(c1ccccc1Cl)c1cnc(N3CCOCC3)cc1N2 | enzyme activity, inhibitor |  | 0.5 µM |  | inhibition | 29.3%
C=CC(=O)N1CCc2ccc(-n3c(=O)ccc4cnc5ccc(-c6cnn(C)c6)cc5c43)cc21 | KINOMEscan |  | 1 µM | relative to: DMSO control | remaining binding | 88%
C=CC(=O)Nc1cc(-c2nn(C3CCN(CCNC(=O)[C@H](C)CCC45CC6CC(CC(C6)C4)C5)CC3)c3ncnc(N)c23)ccc1Oc1ccccc1 | inhibitor, KiNativ profiling | biochemical | 2 µM |  | inhibition | 13.6%
Nc1ncc2c(n1)-c1c([nH]c3ccc(C4=CCOCC4)cc13)CCC2 | binding, competition with immobilised ligand |  | 1 µM |  | remaining binding | 87%
C=CC(=O)N1CCCC(n2c(=O)c3ncccc3n(Cc3ccc(Oc4ccccc4)cc3)c2=O)C1 (centres unmarked) | cell-free assay, competition with immobilised ligand |  | 1 µM |  | remaining binding | 99%
COc1c(Cl)cccc1Nc1c(-c2ccncc2C#C[C@@]2(C)CCCN2C(=O)/C=C/CN(C)C)[nH]c2c1C(=O)NCC2 | binding, competition with immobilised ligand |  | 3 µM |  | remaining binding | 30%
CNC(=O)C[C@H](Cc1ccc(C#N)cc1)NC(=O)c1cc(-c2ccc(CN[C@H](C)c3ccc(C)cc3)o2)ccc1Cl | enzyme activity, inhibitor |  | 1 µM |  | activity vs control | 105%
Cc1cccc(O[C@H]2CCC[C@@H](C(C)CNCc3ccncc3)C2)c1 (relative stereo) | enzyme activity, inhibitor |  | 1 µM |  | inhibition | -3%
CS(=O)(=O)Nc1cccc(-c2csc3cnc(Nc4ccc(N5CCN(CCCCCOc6cccc7c6C(=O)N(C6CCC(=O)NC6=O)C7=O)CC5)cc4)nc23)c1 (centres unmarked) | probe labelling, inhibitor, KiNativ chemoproteomics | MOLT-4 | 1 µM |  | inhibition | -16.4%
NC(=O)[C@@H](O)C[C@H]1CCc2sc3ncnc(O[C@H]4CC[C@H](N5CCOCC5)CC4)c3c21 | radioisotope kinase |  | 10 µM |  | inhibition | 0%
COc1c(OCCCN2CCOCC2)ccc2c1N=C(NC(=O)c1cnc(N)nc1)N1CCN=C21 | kinase activity, inhibitor |  | 1 µM | relative to: untreated control | remaining activity | 107%
O=C(Cc1ccc(OCc2ccccc2)cc1)NC1(C(=O)O)CCN(C(=O)c2ccc(-c3cccc(Cl)c3)cc2)CC1 | enzyme activity, inhibitor |  | 10 µM |  | activity vs control | 89%
CN1CCN(Cc2ccc(-c3ccc(CO[C@H]4CCC[C@@H]4NC(=O)c4cc(-c5cnn(C)c5)cnc4N)cc3)cc2)CC1 | SelectScreen kinase profiling |  | 0.1 µM |  | inhibition | 12%
C=CC(=O)Nc1cccc(-c2cnc3[nH]cc(C(=O)NC(C)(C)C)c3n2)c1 | enzyme activity, inhibitor |  | 0.1 µM |  | inhibition | 6%

A few entries again:
Compound | assay | test system | conditions | how to read | quantity | result
C=CC(=O)N1CCCC(n2c(=O)c3ncccc3n(Cc3ccc(Oc4ccccc4)cc3)c2=O)C1 (centres unmarked) | cell-free assay, competition with immobilised ligand |  | 1 µM |  | remaining binding | 99%
COCC12C(=O)NC3C4(C(OC)CC1O)C1CC5(O)C(OC)C(O)C(OC(C)=O)(C1C5OC(=O)c1ccccc1)C3(O)C(OC)C24 (centres unmarked) | kinase activity, inhibitor, ProQinase kinase profiling |  | 25 µM | relative to: control | remaining activity | 99% and 129%
Cc1cccc(O[C@H]2CCC[C@@H](C(C)CNCc3ccncc3)C2)c1 (relative stereo) | enzyme activity, inhibitor |  | 1 µM |  | inhibition | -3%
